{"data": "Experimental data from different studies", "organism": "Enterobacter cloacae", "note": "Protocols differ between the studies behind these lines."}
{"Compound": "CCCCCCCCCCCCCC(=O)N[C@@H]1CCNC(=O)[C@H](CC(=O)O)NC(=O)[C@H](C(C)C)NC(=O)[C@@H](Cc2ccc(O)cc2)NC(=O)[C@H](CCN)NC(=O)[C@H](CC(C)C)NC(=O)[C@@H](Cc2ccccc2)NC(=O)[C@H](CCN)NC(=O)[C@H](CC(C)C)NC(=O)[C@H](CCN)NC(=O)[C@H]([C@@H](C)O)NC1=O", "test": "broth microdilution", "test system": "BNCC 185028", "MIC": "> 64 µg/mL"}
{"Compound": "CC[C@H](C)[C@H](NC(=O)[C@H](CCCCN)NC(=O)CNC(=O)[C@H](CC(C)C)NC(=O)[C@H](CC(C)C)NC(=O)[C@H](Cc1c[nH]cn1)NC(=O)[C@H](Cc1ccccc1)NC(=O)[C@@H](N)C(C)C)C(=O)N[C@H](C(=O)N[C@@H](Cc1c[nH]cn1)C(=O)N[C@@H](Cc1c[nH]cn1)C(=O)N[C@H](C(=O)NCC(=O)N[C@@H](CC(N)=O)C(=O)N[C@@H](Cc1ccccc1)C(=O)N[C@H](C(=O)N[C@@H](Cc1ccc(O)c(O)c1)C(=O)NCC(=O)N[C@@H](Cc1ccccc1)C(=O)N[C@@H](CO)C(=O)N[C@@H](Cc1c[nH]cn1)C(=O)N[C@H](C(=O)N[C@@H](Cc1ccccc1)C(N)=O)C(C)C)C(C)C)C(C)C)[C@@H](C)CC", "test": "broth microdilution", "test system": "AR 0136", "setting": "pH 7.4", "MIC": "> 128 µM"}
{"Compound": "CCCCCCCCCCCCCC(=O)N[C@H](CCN)C(=O)N[C@H](C(=O)N[C@@H](CCN)C(=O)N[C@@H](CC(C)C)C(=O)N[C@@H](CCN)C(=O)N[C@H](Cc1ccccc1)C(=O)N[C@@H](CC(C)C)C(=O)N[C@@H](CCN)C(=O)N[C@H](Cc1ccc(O)cc1)C(=O)N[C@H](C(=O)N[C@@H](CC(=O)O)C(=O)O)C(C)C)[C@@H](C)O", "test": "broth microdilution", "test system": "BNCC 185028", "MIC": "4 µg/mL"}
{"Compound": "CC[P+](CC)(CC)[Au-][S][C@@H]1O[C@H](COC(C)=O)[C@@H](OC(C)=O)[C@H](OC(C)=O)[C@H]1NC(C)=O", "test system": "NCTC 13405", "MIC": "47 µM"}
{"Compound": "Cc1cc(N)c2cc(NC(=O)c3ccc4cc(C5CC5)ccc4c3)ccc2n1", "test system": "ATCC 13047", "MIC": "> 100 µM"}
{"Compound": "CC(C)Oc1ccc(B(O)O)c(F)n1", "test": "bacterial growth", "test system": "AmpC-overproducing clinical isolate", "setting": "cefotaxime alone", "MIC": "8 µg/mL"}
{"Compound": "CC[C@H](C)[C@H](NC(=O)[C@H](CCCNC(=N)N)NC(=O)CNC(=O)[C@H](CC(C)C)NC(=O)[C@H](CC(C)C)NC(=O)[C@H](CCCCN)NC(=O)[C@H](Cc1ccccc1)NC(=O)[C@H](C)N)C(=O)N[C@H](C(=O)N[C@@H](Cc1c[nH]cn1)C(=O)N[C@@H](Cc1c[nH]cn1)C(=O)N[C@H](C(=O)NCC(=O)N[C@@H](CC(N)=O)C(=O)N[C@@H](Cc1ccccc1)C(=O)N[C@H](C(=O)N[C@@H](Cc1ccc(O)c(O)c1)C(=O)NCC(=O)N[C@@H](Cc1ccccc1)C(=O)N[C@@H](CO)C(=O)N[C@@H](Cc1c[nH]cn1)C(=O)N[C@H](C(=O)N[C@@H](Cc1ccccc1)C(N)=O)C(C)C)C(C)C)C(C)C)[C@@H](C)CC", "test": "broth microdilution", "test system": "AR 0136", "setting": "pH 5.5", "MIC": "8 µM"}
{"Compound": "Cc1cc(N)c2cc(NC(=O)c3ccc4c(-c5ccccc5O)cccc4c3)ccc2n1", "test system": "ATCC 13047", "MIC": "> 100 µM"}
{"Compound": "OB(O)c1cnn(-c2cccc(Cl)c2)c1", "test": "bacterial growth", "test system": "AmpC-overproducing clinical isolate", "setting": "cefotaxime alone", "MIC": "4 µg/mL"}
{"note": "Excerpt of the above:"}
{"Compound": "Cc1cc(N)c2cc(NC(=O)c3ccc4cc(C5CC5)ccc4c3)ccc2n1", "test system": "ATCC 13047", "MIC": "> 100 µM"}
